{"data": "Earlier results, collected from citations in different studies", "note": "Compare with care: the assays were run in different laboratories. ± gives the spread as reported."}
{"SMILES": "CCn1nnc([C@H]2O[C@@H](n3cnc4c(NCc5cccc(I)c5)nc(Cl)nc43)[C@H](O)[C@@H]2O)n1", "target": "ADORA2A (Homo sapiens, UniProt P29274)", "test": "adenylyl cyclase activation, agonist", "EC50": "0.00904 µM"}
{"SMILES": "Nc1ncnc2c1ncn2[C@@H]1O[C@H](COP(=O)(O)OP(=O)(O)O)[C@@H](O)[C@H]1O", "target": "GLUD1 (Homo sapiens, UniProt P00367, H507Y)", "test": "enzyme activity, activator", "setting": "mutant enzyme, reductive amination", "EC50": "9.1 µM"}
{"SMILES": "CC(C)[C@H](NC(=O)CNC(=O)[C@H](CC(N)=O)NC(=O)[C@H](CCCNC(=N)N)NC(=O)[C@H](Cc1ccccc1)NC(=O)[C@@H](N)CO)C(N)=O", "target": "NPSR1 (Homo sapiens, UniProt Q6W5P4)", "test": "calcium mobilization, agonist", "setting": "receptor variant", "EC50": "0.0402 ± 0.0116 µM"}
{"SMILES": "CC(C)C[C@H](N)C(=O)O", "target": "GLUD1 (Homo sapiens, UniProt P00367)", "test": "enzyme activity, allosteric activator", "setting": "reductive amination", "EC50": "640 ± 110 µM"}
{"SMILES": "[Ca+2]", "target": "cGMP-gated channel (rod)", "test": "shift in cGMP K1/2, modulator", "setting": "together with: calmodulin", "EC50": "0.45 µM"}
{"SMILES": "Nc1ncnc2c1ncn2[C@@H]1O[C@H](COP(=O)(O)OP(=O)(O)OP(=O)(O)O)[C@@H](N)[C@H]1O", "target": "P2Y purinoceptor 1 (P2RY1, Homo sapiens, UniProt P47900)", "test": "phospholipase C activation, agonist", "test system": "COS-7", "EC50": "10 µM"}
{"SMILES": "Nc1nc2c(ncn2[C@@H]2O[C@@H]3COP(=O)(O)O[C@H]3[C@H]2O)c(=O)[nH]1", "target": "Cnga2 (Rattus norvegicus, UniProt Q00195)", "test": "channel current, agonist, inside-out patch clamp", "test system": "Xenopus oocytes", "setting": "holding +100 mV", "EC50": "2.1 µM"}
{"SMILES": "Cc1ccc(NC(=O)/C=C/c2ccco2)cc1", "target": "nicotinic acetylcholine receptor alpha7", "test": "agonist", "EC50": "5 to 12 µM"}
{"SMILES": "CC1(C)Cc2c(sc(NC(=O)c3ccn[nH]3)c2C(N)=O)C(C)(C)O1", "target": "CFTR (Homo sapiens, UniProt P13569)", "test": "potentiator", "setting": "open probability reduced 20-fold to 0.02", "EC50": "1.7 µM"}
{"SMILES": "Nc1sc2c(c1C(=O)c1ccc(Cl)cc1)CCCC2", "target": "adenosine A1 receptor", "test": "positive allosteric modulator", "EC50": "6.8 µM"}
{"SMILES": "COc1ccc2[nH]cc3c(=O)n(-c4ccc(C#N)cc4)nc-3c2c1", "target": "Gamma-aminobutyric acid receptor subunit alpha-1/beta-3 (Gabra1/Gabrb3, Rattus norvegicus, UniProt P62813+P63079)", "test": "positive allosteric modulator", "setting": "together with: GABA EC3", "EC50": "1 µM"}
{"SMILES": "C=C[C@@]1(C)CC(=O)[C@]2(O)[C@@]3(C)[C@@H](O)CCC(C)(C)[C@@H]3[C@H](O)[C@H](OC(C)=O)[C@@]2(C)O1", "target": "adenylyl cyclase subunits", "test": "subunit interaction, stabilizer", "EC50": "10 µM"}
{"SMILES": "Cc1ccc(O)cc1-n1c(N)c(C(N)=O)c2nc3ccccc3nc21", "target": "EPHB4 (Homo sapiens, UniProt P54760)", "test": "receptor phosphorylation, inhibitor", "test system": "MEF overexpressing EPHB4", "EC50": "0.0054 µM"}
{"SMILES": "CCCCCC=O", "target": "Olfactory receptor 226 (Olr226, Rattus norvegicus, UniProt P23270)", "test": "agonist", "test system": "rat olfactory neurons expressing OR-I7", "EC50": "1740 ± 440 µM"}
